Measured values from different studies.
Every numbered part comes from another study and shows a few of its results, in no order. Substitutions count along the parent as printed.

Study 1
Target: RING finger protein unkempt homolog, zinc fingers 1-6, GST-SBP tag (UNK, Homo sapiens, UniProt Q9C0B0, residues 30-357)
Method: RNA Bind-n-Seq
Molecule type: RNA
Medium: in vitro
Tested at: not given
Notes: RNA with constant flanks, human and mouse sites, ends assumed
Relative to: input RNA pool
Reading: higher = stronger binding
Shared flanks, not repeated: GGGAGUUCUACAGUCCGACGAUC … CAACAGAGGAUUGAGCAUCA
Target sequence (chain): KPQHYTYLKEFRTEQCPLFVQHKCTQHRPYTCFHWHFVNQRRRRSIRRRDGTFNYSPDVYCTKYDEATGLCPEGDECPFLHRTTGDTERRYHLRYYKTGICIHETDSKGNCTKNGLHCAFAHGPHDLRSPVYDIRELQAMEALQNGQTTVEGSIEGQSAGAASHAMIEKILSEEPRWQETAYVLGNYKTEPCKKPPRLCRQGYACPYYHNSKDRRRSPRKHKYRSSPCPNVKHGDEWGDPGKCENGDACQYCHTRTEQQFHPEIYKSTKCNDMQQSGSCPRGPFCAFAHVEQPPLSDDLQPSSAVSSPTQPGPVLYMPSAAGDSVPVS
Sequence | bound/input enrichment [ratio]
UCCAUGUCAGAAGACAAUCGCCCUUUAACUGGACUUGCAGCUGCAAUUGCCGGAGCAAAACUUAGGAAAGUGUCACGGAUGGAGGAUACCUCUUUCCCAAGUGGAGGGAAUGCUAUUGGU | 0.24
UGGGACCCCACUUGCAUGAAGAUGGACGAGGUUCUGUACAGCAUCGCCGAAAAGGUUAAAAAUUUUGCAGUUAUUUAUCUUGUGGAUAUUACAGAAGUGCCUGACUUCAACAAGAUGUAC | 0.243
AACAGGCACCCCCAGCUCACAUCACCAGCUCAUCCUUUGGUAGCCAUAGCAGCCCCAACUUUAGCCCCCACUCAUCCCUCCGGGGGCUUGCCUUUCCUUGACAGUUUGGGGGUCUGCCUG | 0.177
GAAGAAGGCUGCUUUAUGUUUAUUUUUCAAGACUUUAAAAAUAUUUUUUGGUUGUAUUGCACUAGGAAAUCUCUCCCACCUCUCCCUUUUCUCUUUCUUUCCCUAUACAAAAUAAAAGGC | 0.966
AAGCAGGUGAACAAUUUUCUGACCUCAUCCUGGCGGGAUGAUGACUUUGUGCCACGCUACUGUGAGCACUUUAAUAUUCUGCAGAACUCAAGCUCUGAACUGUUUGGGCCUCGGGCAGCC | 0.202
AUCACCACCAAGGCUGAUAUCUGGGCCUUGGGAUGUUUACUGUAUAAACUUUGUUUCUUCACUCUUCCUUUUGGUGAGAGUCAGGUUGCUAUCUGUGAUGGCAGCUUCACCAUCCCAGAC | 0.0702
ACUUCUUUGAAAAGUCCCAUCAAACAAAUAGCAUGGGAGCAAAAACAGAGGGGCUUUAUUUUAGAUAUGUCUAAUUUUAAGCCUGAAAAGGUAAAACAAAGGUCAUUGUCAGAAGCAAUU | 0.225

Study 2
Target: CCNB2, cyclin fold, Cln2 fusion (human)
Method: yeast growth competition, sequencing
Medium: yeast
Notes: weak parent motif
Relative to: not given
Reading: higher = stronger binding
Starting sequence: DOT1L docking peptide (human); SEAKRRIVFTITT; partner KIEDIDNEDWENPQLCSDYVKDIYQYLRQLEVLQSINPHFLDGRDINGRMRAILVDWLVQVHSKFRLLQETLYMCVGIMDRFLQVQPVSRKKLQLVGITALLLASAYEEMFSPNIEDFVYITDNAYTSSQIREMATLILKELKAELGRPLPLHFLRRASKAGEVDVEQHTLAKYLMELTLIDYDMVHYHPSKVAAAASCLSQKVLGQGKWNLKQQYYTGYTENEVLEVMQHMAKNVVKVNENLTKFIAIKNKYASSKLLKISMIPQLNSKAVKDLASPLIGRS
Change | normalised enrichment score
SEAKRRIVFTATT [I11A] | -0.0884
SEAKRRIVFTIAT [T12A] | 0.337
SEAKRRIVFAITT [T10A] | 0.181
SEAKRRAVFTITT [I7A] | 0.0472
AEAKRRIVFTITT [S1A] | 0.609
SAAKRRIVFTITT [E2A] | 0.345

Study 3
Target: Phosphate system positive regulatory protein PHO4, full length, GST-tagged (PHO4, Saccharomyces cerevisiae, UniProt P07270, residues 1-312)
Method: competition protein-binding microarray
Molecule type: double-stranded DNA, one strand shown
Medium: in vitro
Tested at: 2 µM
Notes: whole 60-bp probe, lowest competitor level
Together with: Cbf1 competitor, 0.05 µM
Reading: higher = stronger binding
Shared flanks, not repeated: … GTCTTGATTCGCTTGACGCTGCTG
Residues (chain): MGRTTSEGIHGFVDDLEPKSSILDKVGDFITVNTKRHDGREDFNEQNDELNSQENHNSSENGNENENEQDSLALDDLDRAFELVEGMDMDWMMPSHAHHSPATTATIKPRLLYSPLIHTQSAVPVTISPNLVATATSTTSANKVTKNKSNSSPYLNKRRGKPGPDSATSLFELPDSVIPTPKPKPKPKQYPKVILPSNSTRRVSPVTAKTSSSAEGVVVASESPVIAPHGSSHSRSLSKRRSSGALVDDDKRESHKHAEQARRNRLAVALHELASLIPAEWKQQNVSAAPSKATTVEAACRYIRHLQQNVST
Sequence | fluorescence intensity [a.u.]
CTAACGAAGGTTTGTCACGTGTTTTACAAGCCAAGT | 14100
AAAGCGGTAATTTGACAAGTGGGTGCAGATATCTAT | 3810
AAAGCGGTAATTTGAGCTGTGGGTGCAGATATCTAT | 4100
CTATTGATGAACAATCACGGCCTCTTGGCTAAGCCC | 3520
CTAACGAAGGTTTGTCACATGACTTACAAGCCAAGT | 6390
GGTTAGGTTGACCATCACGTGGAGGTCAGACATTAT | 15200
CGTCCTAGCGATTGAACGGTGGGTGCCATGAGGAAG | 6550
CTAACGAAGGTTTTTCACGTGGCTTACAAGCCAAGT | 15800

Further values, each from its own experiment
Molecule | target | assay | system | setting | how to read | quantity | value
PhoQ, residues 284 288 289 292 302 303 AGCYAI | PhoP, residues 12 14 15 18 19 LYFRQ (Escherichia coli, UniProt P23836) | Sort-seq, item: YFP reporter | E. coli | PhoQ-PhoP variant library, together with: 10 µM Mg2+ | relative to: high Mg2+ state, higher = stronger signaling | fold induction | 13.6
